Published values gathered from unrelated publications.
Compare with care: the assays were run in different laboratories. ± marks the error that the study gave.

Compound	test	system	setting	quantity	result
N=C(N)NCCC[C@@H]1NC(=O)[C@H](CCCCNC(=O)CNC(=O)CNC(=O)CNC(=O)CC[C@H](NC(=O)CCOCCOCCOCCOCCNC(=O)CC[C@H](NC(=O)CN2CCN(CC(=O)O)CCN(CC(=O)O)CCN(CC(=O)O)CC2)C(=O)NCCOCCOCCOCCOCCC(=O)N[C@@H](CCC(=O)NCC(=O)NCC(=O)NCC(=O)NCCCC[C@@H]2NC(=O)[C@@H](Cc3ccccc3)NC(=O)[C@H](CC(=O)O)NC(=O)CNC(=O)[C@H](CCCNC(=N)N)NC2=O)C(=O)NCC(=O)NCC(=O)NCC(=O)NCCCC[C@@H]2NC(=O)[C@@H](Cc3ccccc3)NC(=O)[C@H](CC(=O)O)NC(=O)CNC(=O)[C@H](CCCNC(=N)N)NC2=O)C(=O)NCC(=O)NCC(=O)NCC(=O)NCCCC[C@@H]2NC(=O)[C@@H](Cc3ccccc3)NC(=O)[C@H](CC(=O)O)NC(=O)CNC(=O)[C@H](CCCNC(=N)N)NC2=O)NC(=O)[C@@H](Cc2ccccc2)NC(=O)[C@H](CC(=O)O)NC(=O)CNC1=O [indium-111 labelled]	–	athymic nude mouse, female, U-87 MG xenograft, urine	intravenous, dose not given	excreted dose	> 80%
Cc1ccc(NS(=O)(=O)c2c(C(=O)N3CCCCCC3)c(C)n(C)c2C)c(Cl)c1	–	ICR mouse, male, plasma	intraperitoneal, dose not given	Tmax	~12 min
CC[C@H](C)[C@H](NC(=O)[C@H](CCCCN)NC(=O)[C@H](CCCCN)NC(=O)[C@H](C)NC(=O)[C@@H](NC(=O)[C@H](C)NC(=O)[C@H](CC(C)C)NC(=O)[C@H](CC(C)C)NC(=O)[C@H](C)NC(=O)[C@H](CCCCN)NC(=O)[C@H](CC(C)C)NC(=O)[C@H](CC(N)=O)NC(=O)[C@@H](N)CC(C)C)C(C)C)C(=O)N[C@@H](CC(C)C)C(N)=O	circular dichroism	10 mM ammonium acetate	100 µM, 20 °C	α-helix content	7%
CC1=C[C@H]2c3c(O)cc(CCc4ccccc4)cc3OC(C)(C)[C@@H]2CC1	–	male BALB/c mice, brain	intraperitoneal, 40 mg/kg, 1 h	concentration	0.8 nmol/g
N[C@]1(c2ccccc2Cl)CCC[C@H](O)C1=O	–	Wistar rat, plasma	oral, 20 mg/kg	AUC(0-t)	10100 ± 1310 ng·h/mL
CC(C)[C@H](N)C(=O)N[C@@H](Cc1ccc(O)cc1)C(=O)N[C@@H](CCCCN)C(=O)N[C@H](C(=O)N[C@@H](CCCCN)C(=O)N[C@H](C(=O)N[C@@H](CCCCN)C(=O)N[C@H](C(=O)N[C@@H](CCCCN)C(=O)N[C@H](C(=O)N[C@@H](CCCCN)C(=O)N[C@H](C(=O)N[C@@H](CCCCN)C(=O)N[C@H](C(=O)N[C@@H](CCCCN)C(=O)N[C@H](C(=O)N[C@@H](CCCCN)C(=O)N[C@H](C(=O)O)[C@@H](C)O)C(C)C)[C@@H](C)O)C(C)C)[C@@H](C)O)C(C)C)[C@@H](C)O)C(C)C	binding, SPR two-state model	rVλ6Wil fibrils	300 nM	kd1	0.026 s⁻¹
COc1cccc(C2(O)CCCCC2CN(C)C)c1.Cc1ccc(-c2cc(C(F)(F)F)nn2-c2ccc(S(N)(=O)=O)cc2)cc1.Cl (racemic)	–	healthy human, fasted	oral, dose not given	subjects with treatment-related adverse events	35.3%
CN(C)CC1CCCCC1(O)c1cccc(O)c1 (centres unmarked)	–	Caco-2	10 µM, 3 h, pH 7.4	Papp B→A	14.2 ×10⁻⁶ cm/s
N=C(N)NCCC[C@@H]1NC(=O)[C@H](CCCCNC(=O)CC[C@H](NC(=O)CCOCCOCCOCCOCCNC(=O)CN2CCN(CC(=O)O)CCN(CC(=O)O)CCN(CC(=O)O)CC2)C(=O)NCCCC[C@@H]2NC(=O)[C@@H](Cc3ccccc3)NC(=O)[C@H](CC(=O)O)NC(=O)CNC(=O)[C@H](CCCNC(=N)N)NC2=O)NC(=O)[C@@H](Cc2ccccc2)NC(=O)[C@H](CC(=O)O)NC(=O)CNC1=O [indium-111 labelled]	–	female athymic nude mice, liver	intravenous, 3 µCi, 24 h, U-87 MG glioma xenograft	tissue uptake	1.51 ± 0.57 %ID/g
COc1ccc(-n2cc(C(=O)N3C[C@]4(OC(=O)c5ccccc5NC(C)=O)CC[C@H](OC)[C@@]56[C@@H]4C[C@@H]([C@@H]35)[C@@]3(O)C[C@H](OC)[C@H]4C[C@@H]6[C@]3(O)[C@H]4OC)nn2)cc1	–	Sprague-Dawley rat, plasma	intravenous, 2 mg/kg	AUC(0-t)	37.8 ng·h/mL
CCCCCc1cc(O)c2c(c1)OC(C)(C)C1CCC(C)=CC21 (single isomer, unassigned; (-))	–	human kidney microsome incubation mixture	–	unbound fraction	0.052 ± 0.005
